Values quoted from earlier work as cited in several papers.
± gives the spread as reported.
Chrna3/Chrnb2/Chrna6 with beta3 subunit: Chrna3/Chrnb2/Chrna6, with beta3 subunit (Rattus norvegicus, UniProt P04757+P12390+P43143)

Sequences of proteins named here, by UniProt entry; tags and fusion partners are left off. Residues count along the entry.
UniProt P04757, whole entry, looked up: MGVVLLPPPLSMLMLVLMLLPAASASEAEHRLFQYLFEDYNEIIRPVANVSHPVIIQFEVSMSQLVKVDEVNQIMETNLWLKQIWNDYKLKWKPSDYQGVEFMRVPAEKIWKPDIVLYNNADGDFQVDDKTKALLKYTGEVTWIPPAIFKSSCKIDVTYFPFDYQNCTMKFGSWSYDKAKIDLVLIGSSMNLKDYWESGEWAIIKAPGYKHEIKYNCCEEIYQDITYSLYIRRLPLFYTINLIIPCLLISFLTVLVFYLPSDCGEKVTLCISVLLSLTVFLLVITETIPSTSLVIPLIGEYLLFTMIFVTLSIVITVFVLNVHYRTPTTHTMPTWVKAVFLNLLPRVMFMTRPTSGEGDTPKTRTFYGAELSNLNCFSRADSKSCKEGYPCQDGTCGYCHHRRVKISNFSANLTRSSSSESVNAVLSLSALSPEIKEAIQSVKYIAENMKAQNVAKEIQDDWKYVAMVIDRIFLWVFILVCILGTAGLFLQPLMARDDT
UniProt P12390, whole entry, looked up: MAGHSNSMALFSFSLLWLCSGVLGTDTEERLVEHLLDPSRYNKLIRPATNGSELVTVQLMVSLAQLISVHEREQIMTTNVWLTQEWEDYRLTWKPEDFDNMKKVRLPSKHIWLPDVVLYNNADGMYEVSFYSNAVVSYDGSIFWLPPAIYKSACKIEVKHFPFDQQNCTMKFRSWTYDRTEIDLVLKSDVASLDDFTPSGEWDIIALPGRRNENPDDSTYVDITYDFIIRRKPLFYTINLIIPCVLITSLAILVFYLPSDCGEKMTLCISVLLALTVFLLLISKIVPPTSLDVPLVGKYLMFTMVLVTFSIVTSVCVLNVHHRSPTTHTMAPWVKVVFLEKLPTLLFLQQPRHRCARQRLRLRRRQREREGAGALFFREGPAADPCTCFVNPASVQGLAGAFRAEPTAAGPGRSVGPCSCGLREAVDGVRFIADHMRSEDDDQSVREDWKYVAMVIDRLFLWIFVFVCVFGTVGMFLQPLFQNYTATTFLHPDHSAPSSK
UniProt P43143, whole entry M241L/F253L/V303I/V320I/I327V/A333T/K339T, looked up: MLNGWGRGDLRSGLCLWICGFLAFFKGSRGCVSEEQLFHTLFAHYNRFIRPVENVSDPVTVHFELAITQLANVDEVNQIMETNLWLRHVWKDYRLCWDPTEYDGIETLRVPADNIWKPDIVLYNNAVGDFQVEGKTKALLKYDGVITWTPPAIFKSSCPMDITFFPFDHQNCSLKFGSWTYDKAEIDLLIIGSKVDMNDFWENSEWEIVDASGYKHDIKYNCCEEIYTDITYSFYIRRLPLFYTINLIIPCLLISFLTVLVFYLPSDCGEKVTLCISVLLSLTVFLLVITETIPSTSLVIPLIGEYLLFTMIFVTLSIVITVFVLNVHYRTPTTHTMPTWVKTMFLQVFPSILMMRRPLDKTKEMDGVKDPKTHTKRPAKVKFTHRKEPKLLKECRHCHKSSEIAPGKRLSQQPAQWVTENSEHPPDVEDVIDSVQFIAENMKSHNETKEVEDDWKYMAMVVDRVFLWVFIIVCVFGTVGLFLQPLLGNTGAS
UniProt P41145, whole entry: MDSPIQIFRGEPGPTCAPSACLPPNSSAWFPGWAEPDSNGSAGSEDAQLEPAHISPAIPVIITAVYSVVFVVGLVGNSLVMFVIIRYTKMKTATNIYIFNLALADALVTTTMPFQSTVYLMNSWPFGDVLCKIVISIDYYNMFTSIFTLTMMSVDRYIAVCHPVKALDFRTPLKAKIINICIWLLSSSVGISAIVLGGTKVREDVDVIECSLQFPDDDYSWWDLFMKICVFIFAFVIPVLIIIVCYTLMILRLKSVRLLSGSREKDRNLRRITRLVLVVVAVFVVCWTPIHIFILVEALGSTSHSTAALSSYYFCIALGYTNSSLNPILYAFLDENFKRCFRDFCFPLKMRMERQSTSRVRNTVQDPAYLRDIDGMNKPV
UniProt A0A0H2US84, 1-441: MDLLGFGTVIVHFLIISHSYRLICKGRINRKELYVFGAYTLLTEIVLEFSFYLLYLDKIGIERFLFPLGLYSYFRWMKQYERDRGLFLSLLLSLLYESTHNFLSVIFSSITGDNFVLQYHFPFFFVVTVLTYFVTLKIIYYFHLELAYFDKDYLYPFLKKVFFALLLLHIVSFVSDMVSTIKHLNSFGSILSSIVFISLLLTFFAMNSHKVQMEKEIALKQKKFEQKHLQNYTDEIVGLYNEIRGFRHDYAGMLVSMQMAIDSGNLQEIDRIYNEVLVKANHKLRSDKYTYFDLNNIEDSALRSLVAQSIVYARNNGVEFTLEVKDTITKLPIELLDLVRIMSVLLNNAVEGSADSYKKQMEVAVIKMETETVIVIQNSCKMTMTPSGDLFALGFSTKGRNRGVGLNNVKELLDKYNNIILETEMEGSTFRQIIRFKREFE
UniProt Q62645, whole entry, looked up: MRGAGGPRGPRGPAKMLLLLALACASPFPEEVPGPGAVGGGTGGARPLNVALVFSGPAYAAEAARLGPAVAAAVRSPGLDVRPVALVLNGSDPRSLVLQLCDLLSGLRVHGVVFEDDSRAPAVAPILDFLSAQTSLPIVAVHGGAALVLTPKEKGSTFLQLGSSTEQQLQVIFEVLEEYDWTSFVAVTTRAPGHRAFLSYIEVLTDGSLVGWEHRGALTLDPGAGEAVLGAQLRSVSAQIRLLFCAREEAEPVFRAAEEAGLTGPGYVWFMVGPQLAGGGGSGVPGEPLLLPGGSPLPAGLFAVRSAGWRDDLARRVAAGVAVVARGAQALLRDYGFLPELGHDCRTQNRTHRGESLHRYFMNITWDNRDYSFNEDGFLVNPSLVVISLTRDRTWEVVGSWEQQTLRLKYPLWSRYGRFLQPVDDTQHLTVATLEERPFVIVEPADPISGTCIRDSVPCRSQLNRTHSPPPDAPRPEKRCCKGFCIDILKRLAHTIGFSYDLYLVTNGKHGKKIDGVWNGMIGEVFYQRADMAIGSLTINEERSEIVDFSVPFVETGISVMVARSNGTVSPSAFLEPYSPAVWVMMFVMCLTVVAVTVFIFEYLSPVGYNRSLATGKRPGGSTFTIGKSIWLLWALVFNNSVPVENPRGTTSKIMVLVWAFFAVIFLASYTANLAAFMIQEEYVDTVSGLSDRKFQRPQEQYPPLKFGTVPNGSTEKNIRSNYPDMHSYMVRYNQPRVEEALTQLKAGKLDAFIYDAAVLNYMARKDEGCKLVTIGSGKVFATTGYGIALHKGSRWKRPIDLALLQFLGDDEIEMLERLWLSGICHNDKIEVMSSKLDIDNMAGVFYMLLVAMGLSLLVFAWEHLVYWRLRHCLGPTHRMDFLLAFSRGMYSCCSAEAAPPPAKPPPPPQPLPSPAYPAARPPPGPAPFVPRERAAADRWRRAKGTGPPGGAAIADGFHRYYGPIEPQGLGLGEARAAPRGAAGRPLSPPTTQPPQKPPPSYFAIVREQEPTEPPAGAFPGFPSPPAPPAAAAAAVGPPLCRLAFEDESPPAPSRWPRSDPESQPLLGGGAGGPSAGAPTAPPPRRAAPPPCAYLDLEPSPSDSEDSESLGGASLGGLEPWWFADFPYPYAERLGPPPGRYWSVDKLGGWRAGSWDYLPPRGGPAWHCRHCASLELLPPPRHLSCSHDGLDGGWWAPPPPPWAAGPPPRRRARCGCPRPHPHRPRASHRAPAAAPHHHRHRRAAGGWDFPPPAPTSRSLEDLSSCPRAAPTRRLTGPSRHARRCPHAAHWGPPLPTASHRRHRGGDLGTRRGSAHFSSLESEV

Compound	target or system	assay	system	conditions	how to read	quantity	result
NC(=O)[C@H](Cc1ccccc1)NC(=O)[C@H](CCCN=C(N)N)NC(=O)C12CC3CC(CC(C3)C1)C2	OPRK1 (Homo sapiens, UniProt P41145)	binding	–	–	–	Ki	> 5000 nM
N#C/C=C/c1ccc2c(S(=O)(=O)n3nc(Nc4ccc(C#N)c(Cl)c4)nc3N)cccc2c1	HIV	–	wild type	–	–	IC50	0.26 ± 0.05 nM
NC(=O)c1ccc(-c2cc(C(=O)O)cc(-n3cc(-c4ccc(C(F)(F)F)cc4)nn3)c2)cc1	HepG2	cytotoxicity	–	–	–	IC50	> 30000 nM
Nc1ccccc1O	heterotrophic aerobic bacteria	–	mixed culture	–	–	IC50	370 nM
CC[C@H](C)[C@H](NC(=O)[C@H](CCCNC(=N)N)NC(=O)[C@H](CCSC)NC(=O)[C@H](C)N)C(=O)N[C@@H](CO)C(=O)N[C@@H](CCCNC(=N)N)C(=O)N[C@H](C(=O)N[C@H](C(=O)N[C@@H](CC(C)C)C(=O)N[C@H](CC(=O)O)C(=O)N[C@@H](Cc1ccccc1)C(=O)N[C@@H](CC(C)C)C(=O)N[C@@H](Cc1ccccc1)C(=O)N[C@@H](CC(C)C)C(=O)N[C@@H](CCCNC(=N)N)C(=O)N[C@@H](CCCCN)C(=O)N[C@@H](CCCCN)C(=O)O)[C@@H](C)CC)[C@@H](C)CC	Competence histidine kinase ComD (Streptococcus pneumoniae serotype 4, UniProt A0A0H2US84)	reporter gene, antagonist	Streptococcus pneumoniae, TIGR4 pcomX::lacZ	–	–	IC50	56.5 nM
CCC1(c2ccccc2)C(=O)NC(=O)NC1=O	–	convulsive seizures	rat lithium-pilocarpine status epilepticus	0 min after SE onset	–	ED50	31 mg/kg
CCCCN1C(=O)C(CC2CCCCC2)NC(=O)C12CCN(Cc1ccc(Oc3ccccc3)cc1)CC2.Cl (stereo not drawn)	HIV-1	infectivity and replication	–	laboratory, clinical, drug-resistant strains	–	viral replication	inhibited
CN1CC[C@]23c4c5ccc(O)c4O[C@H]2[C@@H](O)C=C[C@H]3[C@H]1C5	–	antinociception, hot plate test	Sprague-Dawley rat, male	subcutaneous	–	ED50	3.94 mg/kg
CCN(CC)Cc1cc(Nc2ccnc3cc(Cl)ccc23)ccc1O	–	–	–	phenol group	–	pKa	8 to 9
COc1ccc(OC[C@H]2c3cccn3CC(=O)N2Cc2cccc(F)c2)cc1	Glutamate receptor ionotropic, NMDA 2D, with GluN1 (Rattus norvegicus, UniProt Q62645)	positive allosteric modulator	–	concentration not given	baseline: (+)-CIQ	doubling concentration improvement	15 fold
CCCN(CCC)c1c(C#N)cc(S(=O)(=O)Nc2ccccc2)cc1C#N	Leishmania donovani	cell growth	axenic amastigotes	–	–	IC50	4400 ± 90 nM
C=CC(=O)N1C[C@H](c2ccc(Br)cc2)[C@@H]1C(=O)Nc1cccc2cccnc12	22Rv1	activity-based protein profiling, item: cysteine 271	–	5 µM, 3 h	baseline: DMSO	target engagement	> 90%
NC(=O)N1c2ccccc2C=Cc2ccccc21	–	convulsive seizures	rat lithium-pilocarpine status epilepticus	0 min after SE onset	–	ED50	45 mg/kg
CCN1CC(n2nccc2-c2cc(C(F)(F)F)ccc2Oc2ccc(S(=O)(=O)Nc3ncns3)cc2C#N)C1	Nav1.7	–	–	–	baseline: inactivated state over closed state	potency ratio	~1000 fold
O=C(O)c1cccc(Nc2cc(N3CCCCCC3)c3noc4c3c2C(=O)c2ccccc2-4)c1	human uPAR-uPA interaction	protein-protein interaction, inhibitor	–	–	–	IC50	10000 nM
CC(=O)SCC[N+](C)(C)C	acetylcholinesterase 1 (Anopheles gambiae)	substrate	–	–	–	kcat	652 s⁻¹
O=P1(N(CCCl)CCCl)NC(SCCS(=O)(=O)O)CCO1 (stereo not drawn)	MCF7/CAT cells	–	–	catechol-induced ALDH3A1	baseline: MCF7 cells	resistance	> 35 fold
CN1C(=O)CN=C(c2ccccc2)c2cc(Cl)ccc21	–	–	rat lithium-pilocarpine status epilepticus	10 mg/kg, 30 min after SE onset	–	convulsive seizure suppression	no effect
CC(C)[C@@H]1NC(=O)[C@H](CO)NC(=O)[C@@H]2CSSC[C@H](NC(=O)CN)C(=O)N[C@@H](CSSC[C@@H](C(N)=O)NC(=O)[C@H](C)NC(=O)[C@H](CCC(=O)O)NC(=O)[C@@H]3CCCN3C(=O)[C@H](Cc3c[nH]cn3)NC(=O)[C@H](CC(N)=O)NC1=O)C(=O)N[C@@H](CO)C(=O)N[C@@H](Cc1c[nH]cn1)C(=O)N1CCC[C@H]1C(=O)N[C@@H](C)C(=O)N2	Chrna3/Chrnb2/Chrna6 with beta3 subunit	antagonist	–	–	–	IC50	82.5 nM
O=C1CN=C(c2ccccc2Cl)c2cc([N+](=O)[O-])ccc2N1	–	convulsive seizures	rat lithium-pilocarpine status epilepticus	0 min after SE onset	–	ED50	1.3 mg/kg
CC(C)C[C@@H]1NC(=O)[C@H](CCC(=O)O)NC(=O)[C@@H]2CCCN2C(=O)[C@H](Cc2c[nH]cn2)NC(=O)[C@H](CC(N)=O)NC(=O)[C@H](C(C)C)NC(=O)[C@H](Cc2c[nH]cn2)NC(=O)[C@@H]2CSSC[C@H](NC(=O)CN)C(=O)N[C@@H](CSSC[C@@H](C(N)=O)NC1=O)C(=O)N[C@@H](CO)C(=O)N[C@@H](Cc1c[nH]cn1)C(=O)N1CCC[C@H]1C(=O)N[C@@H](C)C(=O)N2	Chrna3/Chrnb2/Chrna6 with beta3 subunit	antagonist	–	–	–	IC50	0.99 nM
